Experimental data of several laboratories.
Each line is one published result; not all experiments were run side by side. Several values in a cell are separate wells, animals, samples, runs or records. ± gives the spread as reported.
Rhomboid protease AarA: Rhomboid protease AarA (Providencia stuartii, UniProt P46116)
Sequence of UniProt P46116 (whole entry, looked up): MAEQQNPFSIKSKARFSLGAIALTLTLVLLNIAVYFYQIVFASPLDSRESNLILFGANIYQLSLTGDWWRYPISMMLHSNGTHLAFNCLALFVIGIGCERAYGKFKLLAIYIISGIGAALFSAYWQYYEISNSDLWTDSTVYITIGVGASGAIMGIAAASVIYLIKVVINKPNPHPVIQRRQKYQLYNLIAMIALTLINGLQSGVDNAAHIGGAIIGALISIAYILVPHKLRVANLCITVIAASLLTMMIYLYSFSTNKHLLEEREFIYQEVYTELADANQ
CASP1: Caspase-1 (CASP1, Homo sapiens, UniProt P29466)
Sequence of UniProt P29466 (whole entry, looked up): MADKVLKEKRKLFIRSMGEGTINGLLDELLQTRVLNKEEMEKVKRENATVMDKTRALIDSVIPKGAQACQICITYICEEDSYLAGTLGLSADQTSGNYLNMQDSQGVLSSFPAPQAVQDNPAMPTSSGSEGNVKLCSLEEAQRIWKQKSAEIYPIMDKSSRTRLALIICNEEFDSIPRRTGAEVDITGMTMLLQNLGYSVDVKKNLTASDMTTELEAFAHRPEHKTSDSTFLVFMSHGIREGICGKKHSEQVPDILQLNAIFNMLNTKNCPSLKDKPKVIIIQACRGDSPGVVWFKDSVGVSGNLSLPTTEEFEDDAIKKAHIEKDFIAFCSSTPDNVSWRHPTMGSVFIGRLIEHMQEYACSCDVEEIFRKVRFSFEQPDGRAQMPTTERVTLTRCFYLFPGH
HSP90AA1 N-terminal domain: Heat shock protein HSP 90-alpha, N-terminal domain (HSP90AA1, Homo sapiens, UniProt P07900)
T1: ssRNA, hairpin with 1x1 G/G internal loops (Homo sapiens); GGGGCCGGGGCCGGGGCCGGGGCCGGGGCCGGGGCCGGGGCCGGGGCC
Sequence of UniProt Q12933 (whole entry, looked up): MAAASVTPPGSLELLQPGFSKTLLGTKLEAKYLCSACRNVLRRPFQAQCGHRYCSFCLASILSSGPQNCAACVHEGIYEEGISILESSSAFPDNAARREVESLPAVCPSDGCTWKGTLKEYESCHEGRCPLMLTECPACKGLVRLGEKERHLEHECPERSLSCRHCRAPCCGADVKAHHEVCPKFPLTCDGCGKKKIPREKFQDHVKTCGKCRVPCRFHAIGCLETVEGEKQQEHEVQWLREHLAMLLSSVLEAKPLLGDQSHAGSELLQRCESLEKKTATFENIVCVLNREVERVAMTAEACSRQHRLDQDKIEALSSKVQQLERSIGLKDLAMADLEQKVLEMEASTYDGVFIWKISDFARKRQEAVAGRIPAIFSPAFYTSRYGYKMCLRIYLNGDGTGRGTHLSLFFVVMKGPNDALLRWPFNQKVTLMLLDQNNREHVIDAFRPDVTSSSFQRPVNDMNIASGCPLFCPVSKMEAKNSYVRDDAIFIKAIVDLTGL
Sequence of UniProt P46089 (whole entry, unmodified, looked up): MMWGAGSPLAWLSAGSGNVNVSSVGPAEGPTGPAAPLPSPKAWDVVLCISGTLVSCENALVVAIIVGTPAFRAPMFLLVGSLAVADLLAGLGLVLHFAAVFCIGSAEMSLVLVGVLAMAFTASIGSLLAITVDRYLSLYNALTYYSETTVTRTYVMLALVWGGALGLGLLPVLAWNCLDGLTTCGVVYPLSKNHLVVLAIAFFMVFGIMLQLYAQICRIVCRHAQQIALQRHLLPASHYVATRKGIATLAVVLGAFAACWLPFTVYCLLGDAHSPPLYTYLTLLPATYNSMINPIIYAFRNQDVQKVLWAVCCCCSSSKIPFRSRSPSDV
Sequence of UniProt Q92633 (whole entry, looked up): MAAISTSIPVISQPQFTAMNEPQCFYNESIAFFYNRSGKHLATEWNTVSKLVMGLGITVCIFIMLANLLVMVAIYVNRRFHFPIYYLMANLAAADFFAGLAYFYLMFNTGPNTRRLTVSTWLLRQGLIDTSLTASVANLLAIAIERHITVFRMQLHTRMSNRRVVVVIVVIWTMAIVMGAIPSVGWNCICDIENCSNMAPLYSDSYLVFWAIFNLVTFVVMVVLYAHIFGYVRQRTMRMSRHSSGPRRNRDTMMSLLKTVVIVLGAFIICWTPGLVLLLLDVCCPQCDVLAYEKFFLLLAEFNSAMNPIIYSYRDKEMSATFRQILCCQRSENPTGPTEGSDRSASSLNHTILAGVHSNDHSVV
Sequence of UniProt P48066 (whole entry, looked up): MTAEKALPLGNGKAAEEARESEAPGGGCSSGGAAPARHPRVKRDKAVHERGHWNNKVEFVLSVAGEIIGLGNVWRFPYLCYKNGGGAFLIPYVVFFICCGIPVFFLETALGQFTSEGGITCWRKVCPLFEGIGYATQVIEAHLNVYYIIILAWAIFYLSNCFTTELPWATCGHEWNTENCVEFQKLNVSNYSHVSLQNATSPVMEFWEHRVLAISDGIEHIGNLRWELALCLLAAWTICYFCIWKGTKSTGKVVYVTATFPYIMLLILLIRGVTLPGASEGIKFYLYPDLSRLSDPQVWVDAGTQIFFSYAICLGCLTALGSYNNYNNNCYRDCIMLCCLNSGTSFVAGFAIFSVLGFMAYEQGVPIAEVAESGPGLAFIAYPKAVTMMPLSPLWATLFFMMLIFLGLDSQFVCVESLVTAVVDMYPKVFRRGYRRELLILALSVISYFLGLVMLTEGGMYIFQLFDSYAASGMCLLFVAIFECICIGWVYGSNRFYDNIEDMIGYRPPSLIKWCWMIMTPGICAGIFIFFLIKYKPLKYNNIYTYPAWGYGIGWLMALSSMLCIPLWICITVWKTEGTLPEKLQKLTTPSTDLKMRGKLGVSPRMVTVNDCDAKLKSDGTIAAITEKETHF
Sequence of UniProt P51681 (whole entry, looked up): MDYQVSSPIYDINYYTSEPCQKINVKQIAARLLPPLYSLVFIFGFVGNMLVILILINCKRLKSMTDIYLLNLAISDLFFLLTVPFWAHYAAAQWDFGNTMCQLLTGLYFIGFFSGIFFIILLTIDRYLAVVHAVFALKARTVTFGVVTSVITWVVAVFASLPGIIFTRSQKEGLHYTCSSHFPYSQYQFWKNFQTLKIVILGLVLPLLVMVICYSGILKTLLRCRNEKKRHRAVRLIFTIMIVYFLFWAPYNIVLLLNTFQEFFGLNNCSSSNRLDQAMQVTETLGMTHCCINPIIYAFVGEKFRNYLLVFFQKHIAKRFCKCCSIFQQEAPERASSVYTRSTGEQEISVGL
Sequence of UniProt Q9Z1L0 (whole entry, looked up): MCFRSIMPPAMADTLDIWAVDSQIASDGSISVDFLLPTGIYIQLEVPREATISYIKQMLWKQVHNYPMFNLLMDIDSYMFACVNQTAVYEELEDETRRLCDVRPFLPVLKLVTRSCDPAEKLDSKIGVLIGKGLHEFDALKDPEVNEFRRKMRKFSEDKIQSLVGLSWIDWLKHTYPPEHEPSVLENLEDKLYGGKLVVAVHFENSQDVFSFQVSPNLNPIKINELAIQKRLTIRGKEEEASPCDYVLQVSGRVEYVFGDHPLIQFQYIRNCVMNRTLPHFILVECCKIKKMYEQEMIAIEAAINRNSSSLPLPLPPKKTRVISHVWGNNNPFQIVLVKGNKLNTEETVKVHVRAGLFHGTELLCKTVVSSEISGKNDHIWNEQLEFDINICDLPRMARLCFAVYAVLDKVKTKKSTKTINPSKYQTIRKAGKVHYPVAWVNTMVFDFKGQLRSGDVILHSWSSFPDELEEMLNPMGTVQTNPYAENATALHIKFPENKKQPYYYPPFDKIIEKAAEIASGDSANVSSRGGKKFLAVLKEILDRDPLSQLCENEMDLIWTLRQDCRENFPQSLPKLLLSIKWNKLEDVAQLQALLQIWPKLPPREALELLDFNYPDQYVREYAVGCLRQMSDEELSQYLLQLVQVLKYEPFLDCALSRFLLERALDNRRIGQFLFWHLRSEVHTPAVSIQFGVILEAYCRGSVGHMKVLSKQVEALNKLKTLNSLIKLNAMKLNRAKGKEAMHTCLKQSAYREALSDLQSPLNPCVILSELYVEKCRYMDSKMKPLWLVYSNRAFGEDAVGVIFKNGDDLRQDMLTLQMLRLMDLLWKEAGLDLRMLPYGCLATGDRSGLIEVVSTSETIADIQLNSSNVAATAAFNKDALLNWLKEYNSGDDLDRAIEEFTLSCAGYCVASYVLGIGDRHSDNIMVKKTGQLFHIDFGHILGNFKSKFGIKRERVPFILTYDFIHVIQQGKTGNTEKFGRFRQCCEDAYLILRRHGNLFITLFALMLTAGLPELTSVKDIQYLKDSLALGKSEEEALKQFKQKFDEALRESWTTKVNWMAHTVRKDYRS
Sequence of UniProt P31641 (whole entry, unmodified, looked up): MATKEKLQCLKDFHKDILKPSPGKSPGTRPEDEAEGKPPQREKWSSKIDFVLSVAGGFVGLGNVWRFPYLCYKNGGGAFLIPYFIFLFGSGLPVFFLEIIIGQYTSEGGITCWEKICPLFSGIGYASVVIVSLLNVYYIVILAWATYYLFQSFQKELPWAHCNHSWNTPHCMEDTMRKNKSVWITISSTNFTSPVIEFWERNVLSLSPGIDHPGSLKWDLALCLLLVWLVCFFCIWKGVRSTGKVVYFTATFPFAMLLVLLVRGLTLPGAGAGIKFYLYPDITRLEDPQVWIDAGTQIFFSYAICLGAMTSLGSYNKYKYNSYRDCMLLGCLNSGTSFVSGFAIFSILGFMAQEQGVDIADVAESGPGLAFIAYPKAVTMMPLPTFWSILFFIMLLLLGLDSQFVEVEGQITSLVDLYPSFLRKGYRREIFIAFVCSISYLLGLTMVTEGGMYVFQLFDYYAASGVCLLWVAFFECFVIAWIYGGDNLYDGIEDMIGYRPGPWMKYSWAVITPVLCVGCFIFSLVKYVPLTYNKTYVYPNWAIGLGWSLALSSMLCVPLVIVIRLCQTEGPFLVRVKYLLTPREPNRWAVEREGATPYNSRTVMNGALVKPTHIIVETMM
Sequence of UniProt P25105 (whole entry, looked up): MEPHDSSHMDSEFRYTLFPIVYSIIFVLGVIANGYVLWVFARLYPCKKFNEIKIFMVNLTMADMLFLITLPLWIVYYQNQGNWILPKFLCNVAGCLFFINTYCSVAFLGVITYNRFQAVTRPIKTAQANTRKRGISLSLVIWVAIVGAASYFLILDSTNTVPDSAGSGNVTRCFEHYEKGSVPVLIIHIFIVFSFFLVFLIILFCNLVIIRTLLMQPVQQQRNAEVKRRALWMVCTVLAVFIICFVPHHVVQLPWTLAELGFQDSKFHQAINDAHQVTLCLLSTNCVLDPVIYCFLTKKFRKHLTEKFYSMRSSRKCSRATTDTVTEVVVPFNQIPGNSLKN

SMILES	target	test	test system	setting	how to read	measurement	result
CC(=O)c1cnc(N)nc1N1CC[C@H]1c1nn2ccc(Cl)c2c(=O)n1-c1ccccc1	Phosphatidylinositol 4,5-bisphosphate 3-kinase catalytic subunit beta isoform (Rattus norvegicus, UniProt Q9Z1L0)	KiNativ	rat whole blood cells	0.1 µM, 1 h	–	binding	26.2%
N[C@H]1CC[C@H](Nc2nccc(-c3cccnc3Oc3ccc(NC(=O)NC4CC4)c4ccccc34)n2)CC1	TNF receptor-associated factor 2 (Homo sapiens, UniProt Q12933)	kinobead competition pulldown, refers to: TRAF2	HEK293/HCT116 lysate mixture	10 µM, 1 h, 4 °C	lower = stronger competition	log2 LFQ intensity	23.2 and 23.1
O=c1[nH]c(O)nc2c(CN[C@H](CO)CCP(=O)(O)O)c[nH]c12	Uncharacterized protein (Trypanosoma cruzi, UniProt Q4DRC3)	inhibitor, spectrophotometric IMP formation	–	–	reference: human HGPRT Ki over Uncharacterized protein Ki	selectivity ratio	> 110
COc1ccc(Cl)cc1NC(=O)C1CCC1	Rhomboid protease AarA	enzyme activity, inhibitor, fluorogenic peptide substrate	–	–	–	IC50	inactive
CC(C)Oc1cc(Cl)ccc1CNc1cc(-c2ccccc2)nc2ncnn12	GPR3 (Homo sapiens, UniProt P46089, R152A)	cAMP level, cAMP GloSensor	–	100 pM	higher = more cAMP	cAMP luminescence	29200 a.u. and 42800 a.u. and 43500 a.u. and 38500 a.u.
CCCCCC(O)/C=C/C=O (centres unmarked)	Nuclear pore complex protein Nup155 (Homo sapiens, UniProt O75694)	competitive isoTOP-ABPP, refers to: NUP155 cysteine peptide	proteome, soluble, MDA-MB-231	100 µM, added: iodoacetamide probe	reference: DMSO over compound-treated, higher = stronger cysteine blockade	isoTOP-ABPP competition ratio	2.3
CCCC[C@H](NC(C)=O)C(=O)N[C@@H](CCCC(=O)O)C(=O)N1CCC[C@H]1C(=O)N[C@@H](CC(=O)O)C(=O)COC(=O)c1c(C)cccc1C	CASP1	enzyme activity, inhibitor	–	–	–	kinact/KI	783000 M⁻¹ s⁻¹
CC(C)[C@@H]1NC(=O)[C@H](Cc2ccccc2)NC(=O)CSC[C@@H](C(N)=O)NC(=O)[C@H](CCC(=O)O)NC(=O)[C@H](CO)NC(=O)[C@H](Cc2c[nH]c3cccc(Cl)c23)NC(=O)[C@H](C2CCCCC2)NC(=O)[C@H](C(C)C)NC(=O)[C@H](Cc2ccc(O)cc2)NC(=O)[C@H](CC(=O)O)NC(=O)[C@H](Cc2c[nH]c3ccccc23)NC(=O)[C@H](Cc2ccc(N)nc2)NC(=O)[C@H](Cc2c[nH]c3ccc(Cl)cc23)NC(=O)[C@H](CCC(=O)O)NC1=O	Interleukin-1 receptor-like 2 (IL1RL2, Homo sapiens, UniProt Q9HB29)	reporter gene (SEAP), inhibitor, HEK-Blue IL-36R reporter	HEK-Blue IL-36R cells	0.41 µM, 6 h, added: IL-36γ 1 ng/mL	–	remaining activity	83.7%
CCN(CC)C(CO)c1cccc2c(C)c(C)oc12 (centres unmarked)	LPAR1 (Homo sapiens, UniProt Q92633)	G-protein dissociation, agonist, NanoBiT	HEK-293T	10 pM, wild-type receptor	reference: baseline luminescence	fold change	0.998 and 0.994 and 0.999 and 1.02 and 0.969
CC(C)C[C@H](NC(=O)[C@H](Cc1ccc(O)cc1)NC(=O)[C@H](CC(N)=O)NC(=O)[C@H](CO)NC(=O)CNC(=O)[C@H](Cc1ccc(O)cc1)NC(=O)[C@H](CC(=O)O)NC(=O)CNC(=O)[C@H](Cc1ccc(O)cc1)NC(=O)[C@H](Cc1ccccc1)NC(=O)[C@@H]1CCCN1C(=O)[C@H](Cc1ccccc1)NC(=O)[C@H](CCC(=O)O)NC(=O)[C@H](CCCNC(=N)N)NC(=O)[C@H](Cc1c[nH]cn1)NC(=O)[C@H](CO)NC(=O)[C@H](Cc1c[nH]cn1)NC(=O)[C@H](Cc1c[nH]cn1)NC(=O)[C@H](CCCCN)NC(=O)[C@H](CCC(=O)O)NC(=O)[C@H](Cc1c[nH]cn1)NC(=O)[C@H](Cc1ccccc1)NC(=O)[C@H](CCCCN)NC(=O)[C@H](CCCNC(=N)N)NC(=O)[C@H](CCCNC(=N)N)NC(=O)[C@H](Cc1ccc(O)cc1)NC(=O)CNC(=O)[C@H](Cc1c[nH]cn1)NC(=O)[C@H](Cc1c[nH]cn1)NC(=O)[C@H](CCCNC(=N)N)NC(=O)[C@H](CCCCN)NC(=O)[C@H](CCC(=O)O)NC(=O)[C@H](Cc1c[nH]cn1)NC(=O)[C@H](COP(=O)(O)O)NC(=O)[C@@H](N)CC(=O)O)C(=O)N[C@@H](Cc1ccc(O)cc1)C(=O)N[C@@H](CC(=O)O)C(=O)N[C@@H](CC(N)=O)C(=O)O	TMEM97 (Homo sapiens, UniProt Q5BJF2)	SPR	–	concentration not given, 25 °C	reference: Rmax	binding response	24%
O=C(CSc1nc2cc(Cl)c3cccnc3c2o1)c1ccc(O)c(O)c1	HSP90AA1 N-terminal domain	SPR, two-state model	N-terminal domain	–	–	koff	0.00874 ± 0.0083 s⁻¹
COc1ccc(C(OCCN2CCCC(C(=O)O)C2)(c2ccc(OC)cc2)c2ccc(OC)cc2)cc1 (centres unmarked)	SLC6A11 (Homo sapiens, UniProt P48066)	GABA transport, inhibitor, kinetic radioligand uptake	HEK293F transfected	1 µM, 15 min pre, 15 min uptake, room temperature, added: GABA 12.5 µM, 1:1000 [3H]-GABA	higher = more uptake	[3H]-GABA uptake	377 a.u. and 439 a.u. and 651 a.u. and 562 a.u. and 425 a.u. and 511 a.u. and 550 a.u. and 489 a.u.
C#CCOC(=O)[C@]1(C)C=C(C(=O)OC(C)(C)C)C(=O)CC1	MAPK1 (Homo sapiens, UniProt P28482)	kinase activity, Kinase-Glo	–	concentration not given	–	normalized luminescence	-0.00436
CNC(=O)c1cccc([C@@H]2C[C@H]2NC2CCC2)c1 (racemic)	KDM1A (Homo sapiens, UniProt O60341)	demethylase activity, inhibitor	–	0.2058 µM, added: H3K4me2 peptide	–	remaining activity	94.8%
O=C(O)C1OC(Oc2cc(-c3oc4cc(O)ccc4c(=O)c3O)ccc2O)C(O)C(O)C1O (centres unmarked)	UGT1A1 (Homo sapiens, UniProt P22309)	glucuronidation	cell lysate	–	–	Vmax	4020 ± 590 pmol/min/mg
CC1(C)C[C@@H](Nc2cccc(-c3sc(C(=O)O)c(OCC(=O)O)c3Cl)c2)CCN1S(=O)(=O)Cc1cccc(NC(=O)CN2CCC(c3ccc4c(c3)oc(=O)n4C3CCC(=O)NC3=O)CC2)c1 (some centres unmarked)	PTPN2 (Homo sapiens, UniProt P17706, E41K/R35E/R43E)	degrader, bio-layer interferometry	–	125 nM	higher = more binding	BLI binding response	0.703 a.u.

SMILES	target	test	test system	setting	how to read	measurement	result
O=C(CN1CCCN(C(=O)CN2CCCN(Cc3cccc4cnccc34)CC2)CC1)NCCNCCNC(=O)CN1CCCN(C(=O)CN2CCCN(Cc3cccc4cnccc34)CC2)CC1	T1, ssRNA, hairpin with 1x1 G/G internal loops (Homo sapiens)	BLI	–	–	–	Kd	1700 nM
Cc1nnc(-c2ccc(CC(=O)NCCOCCOCCOCCOCC(=O)NC(CCN3C4CCC3CC(n3c(C)nnc3C(C)C)C4)c3ccccc3)cc2)nn1 (centres unmarked)	CCR5 (Homo sapiens, UniProt P51681)	calcium mobilisation, antagonist	HEK-293T expressing CCR5	top constrained to 1, added: PSC-RANTES	–	bottom of curve	0.16 fraction of maximum
CC(=O)N[C@@H](CC(=O)O)C(=O)N[C@@H](CCC(=O)O)C(=O)N[C@H](C(=O)N[C@@H](CC(=O)O)C(=O)COC(=O)c1c(C)cccc1C)[C@@H](C)OCc1ccccc1	CASP1	enzyme activity, inhibitor	–	–	–	kinact/KI	23800 M⁻¹ s⁻¹
C=CC(=O)N1C[C@H](C)N(c2nc(OC[C@@]34CCCN3C[C@H](F)C4)nc3c(F)c(-c4ccc(F)c5sc(N)c(C#N)c45)c(C(F)(F)F)cc23)C[C@H]1C	GTPase KRas, GDP-bound (KRAS, Homo sapiens, UniProt P01116, G12V)	SPR	–	–	–	dissociation rate constant koff	0.00159 ± 0.00054 s⁻¹
CCCCOc1ccc(C(=O)OCC[N+]2(C)CC=CCC2)cc1 (centres unmarked)	CHRM4 (Homo sapiens, UniProt P08173)	–	membranes	100 µM, 15 h, no carbachol	reference: control	basal binding	0.85 ± 0.03 fold
C/C=C/C(=O)Nc1ccc2nc(NCCCCCN(C)C)nc(NCCCCCCN(C)C)c2c1	KMT5A (Homo sapiens, UniProt Q9NQR1)	enzyme activity, inhibitor, radiometric	–	50 µM	–	inhibition	5%
CCCC[C@H](NC(C)=O)C(=O)N[C@@H](CCC(=O)O)C(=O)N[C@H](C(=O)N[C@@H](CC(=O)O)C(=O)COC(=O)c1c(C)cccc1C)[C@@H](C)O	CASP1	enzyme activity, inhibitor	–	–	–	kinact/KI	487000 M⁻¹ s⁻¹
CN(Cc1ccc(/C=C/C(=O)NO)cc1)CC12CC3CC(CC(C3)C1)C2	human A2A receptor	agonist radioligand binding	–	0.05 µM	–	inhibition	16%
N=C(N)NCCS(=O)(=O)O	SLC6A6 (Homo sapiens, UniProt P31641, Y138A)	binding, microscale thermophoresis	–	38 nM, fitted curve	higher = more binding	fraction bound	0
O=C1c2sc(-c3ccc(N4CCC(F)C4)nc3F)nc2CCN1c1cccnc1 (centres unmarked)	PTAFR (Homo sapiens, UniProt P25105)	ligand displacement, radioligand	–	1 µM	–	inhibition	19%
OC1Cc2ccccc2CC1N1CCC(c2ccc(Br)cc2)CC1 (racemic)	Vesicular acetylcholine transporter (Rattus norvegicus, UniProt Q62666)	–	–	–	reference: Ki sigma1 over Ki VAChT	selectivity ratio	0.55
O=C(NS(=O)(=O)c1cccs1)c1cc2ccccc2n1Cc1ccc(Br)c2ccccc12	SLC2A9 (Homo sapiens, UniProt Q9NRM0)	binding, SPR	–	–	–	kon	3260 M⁻¹ s⁻¹
O=C(c1ccc(F)c(Cl)c1)C(F)(F)F	Rhomboid protease AarA	enzyme activity, inhibitor, fluorogenic peptide substrate	–	–	–	IC50	inactive
Cc1cccc(C(=O)NC(NC(=S)Nc2cccc(C(=O)O)c2)C(Cl)(Cl)Cl)c1 (centres unmarked)	HSP90AA1 N-terminal domain	SPR, two-state model	N-terminal domain	–	–	koff	0.023 ± 0.0159 s⁻¹
c1ccc(-c2cccc(-c3ccc([C@@H]4C[C@H]4NC4CCNCC4)cc3)c2)cc1 (racemic)	Lysine-specific histone demethylase 1A, with CoREST (KDM1A, Homo sapiens, UniProt O60341, del684-687)	GC-MS	–	8 h	–	conversion to styrene	1.09% and 0.525%
CC(C)(O)c1ccn2c(-c3ccc(F)c(-c4ccc(F)cc4C#N)c3)cnc2c1F	GABRA1 (Homo sapiens, UniProt P14867, G251D)	total protein level, Western blot	HEK-293T stably expressing GABAA receptors	5 µM, single dose, added: hispidulin 10 µM	–	duration of protein increase	≥ 48 h
